{"data": "Results collected from several papers", "note": "Lines come from different studies, so protocols differ. ± marks the error that the study gave."}
{"SMILES": "C/C(=N\\C#N)N(C)Cc1ccc(Cl)nc1", "system": "soil", "conditions": "56 days, nominal 0.37", "concentration": "0.013 mg/kg dry soil"}
{"SMILES": "CN1CCN(S(=O)(=O)c2cc([N+](=O)[O-])ccc2N(CCOS(C)(=O)=O)CCOS(C)(=O)=O)CC1", "system": "NSG mice female, plasma", "conditions": "intraperitoneal, 5 mg/kg, 0.25 h", "concentration": "1550 nM"}
{"SMILES": "Cc1c(C(=O)O)ccc2c3n(nc12)[C@@H]1[C@H](C3)N(CC2CC2)[C@@]2(C(=O)Nc3cc(Cl)ccc32)[C@H]1c1cccc(Cl)c1F", "system": "athymic nude mice, normal brain", "conditions": "oral, 2 mg/kg, 24 h", "concentration": "6 ± 7 nM"}
{"SMILES": "O=C(Nc1cccnn1)N1CCC(=Cc2cccc(Oc3ccc(C(F)(F)F)cn3)c2)CC1", "system": "culture medium without cells", "conditions": "100 nM, 0 h", "concentration": "60.7 ± 3.7 nM"}
{"SMILES": "CC(C)[C@@H](CS(=O)(=O)C(C)C)N1C(=O)[C@@](C)(CC(=O)O)C[C@H](c2cccc(Cl)c2)[C@H]1c1ccc(Cl)cc1", "test": "MALDI-MSI", "system": "athymic nude mice, orthotopic PDX, tumour", "conditions": "oral, 25 mg/kg, 2 h after second dose, median", "concentration": "115 nM"}
{"SMILES": "CN(C(=O)n1cnc(-c2ccc[n+]([O-])c2)c1)C1CCCCC1", "system": "culture medium without cells", "conditions": "100 nM, 0 h", "concentration": "90 ± 5 nM"}
{"SMILES": "CN(C(=O)n1cnc(-c2ccc[n+]([O-])c2)c1)C1CCCCC1", "system": "Wistar rat, medulla oblongata", "conditions": "oral, 10 mg/kg, 4 h, single dose", "concentration": "114 ± 35.8 ng/g"}
{"SMILES": "O=C(Nc1cnccc1Cl)N1CCN(Cc2ccc3c(c2)OC(F)(F)O3)CC1", "system": "culture medium without cells", "conditions": "100 nM, 1 h", "concentration": "92.9 ± 2.1 nM"}
{"SMILES": "N#C/N=C1\\SCCN1Cc1ccc(Cl)nc1", "system": "soil", "conditions": "0 days, nominal 0.12", "concentration": "0.06 mg/kg dry soil"}
{"note": "A few entries again:"}
{"SMILES": "O=C(Nc1cccnn1)N1CCC(=Cc2cccc(Oc3ccc(C(F)(F)F)cn3)c2)CC1", "system": "culture medium without cells", "conditions": "100 nM, 0 h", "concentration": "60.7 ± 3.7 nM"}
